Measured values from different studies.
Parts stem from different laboratories: compare values within a part only. Positions count from the first letter of the parent shown.

Set 1
Target: Sodium-dependent serotonin transporter (SLC6A4, Homo sapiens, UniProt P31645)
Read-out: cell-free assay
Tested at: 10 µM
With `C[C@@H](NC(=O)Nc1cc2[nH]ncc2c(CO)n1)c1ccccc1` the inhibition was 2.86%.
`CS(=O)(=O)c1cc(C2(NC(=O)c3cncc4c3cnn4-c3ccc(F)cc3)CC2)ccn1` has an inhibition of -2.94%.
For `CC1CCN(c2ccnc(NCc3cn(C)cn3)n2)CC1`, the inhibition was 5.83%.
`CCOc1cc(N2C3COCC2CN(C(=O)[C@H]2C[C@H](O)CN2c2ccc(Cl)cc2)C3)ccc1Cl` gave an inhibition of 33.4%.
The inhibition of `CN1CCN(C(=O)C(C)(C)c2ccc(C(=O)Nc3cn4cc(-c5cc(C(C)(C)C)cc(C(C)(C)C)c5)ccc4n3)cc2)CC1` is reported as 26.3%.
With `COc1ccc2cc(OCC3(C(=O)O)CN(C(=O)c4ccc(F)cc4)C3)ccc2c1` the inhibition was -6.83%.
For `CO[C@H]1CC[C@H](CNc2ccc(S(=O)(=O)NC(=O)c3ccc(N4CCN(CC5=C(c6ccc(Cl)cc6)CC(C)(C)CC5)CC4)cc3Oc3cnc4[nH]ccc4c3)cc2[N+](=O)[O-])CC1`, the inhibition was 25.1%.
`CC(C)(C)OC(=O)N1CCCC1CNC1CCC(c2cc(F)ccc2F)(S(=O)(=O)c2ccc(Cl)cc2)CC1` (stereo not drawn) gave an inhibition of 6.71%.
The inhibition of `CC(=O)Nc1c(C(C)=O)c(=O)n(C)c2nc(-c3ccc(Cl)cc3Cl)c(-c3ccc(Cl)cc3)cc12` is reported as -9.53%.
For `O=C(NNS(=O)(=O)c1ccccc1)c1cc(-c2ccnnc2)ccc1F`, the inhibition was 6.15%.
The inhibition of `CN(C)C(=O)Cn1cc(-c2nc(C3(c4ccc(-c5cnc(N)nc5)cc4)CC3)no2)cn1` is reported as 5.35%.
`Cc1ccc(-c2cnc([C@@]3(O)CC[C@H](C(=O)O)C(C)(C)C3)s2)cc1Nc1cccc(C(F)(F)F)n1` gave an inhibition of 15.7%.
The inhibition of `Cc1c(C(=O)O)cc(-c2ccc(C3CCNCC3)cc2)c2ccc(-c3ccc(C(F)(F)F)cc3)cc12` is reported as -7.91%.
`O=C(N[C@H]1CCCCC/C=C\C2C[C@@]2(C(=O)O)NC(=O)[C@@H]2C[C@@H](Oc3ccncc3)CN2C1=O)OC1CCCC1` (stereo partly drawn) gave an inhibition of -6.94%.
`N#Cc1ccc(Nc2ccc3[nH]c(=O)[nH]c3c2)c(Cl)c1` has an inhibition of 21.1%.

Set 2
Target: CCND3, cyclin fold, Cln2 fusion (human)
Method: yeast growth competition, sequencing
Matrix: yeast
Notes: weak parent motif
Relative to: not given
Reading: higher = stronger binding
Parent: viral docking peptide; KGVKRKLFAEDSS
`KGVKRKLFAEWSS [D11W]` — result for “normalised enrichment score”: -0.191.
`KGVPRKLFAEDSS [K4P]`: “normalised enrichment score” -0.0806.
`KQVKRKLFAEDSS [G2Q]`: “normalised enrichment score” 0.452.
For `KGVKMKLFAEDSS [R5M]`, “normalised enrichment score” read -0.0795.
Under “normalised enrichment score”, `KNVKRKLFAEDSS [G2N]` is recorded as 0.131.
Under “normalised enrichment score”, `KGVKRKLFAPDSS [E10P]` is recorded as 0.339.
`KGVKRKLFAEDLS [S12L]` — result for “normalised enrichment score”: 0.238.
For `KGVKRKLFSEDSS [A9S]`, “normalised enrichment score” read 0.155.

Set 3
Cell line: HEK-293T-ACE2-TMPRSS2
Method: cell count
Tested at: 10 µM
`NC(=O)C1CC(=O)N(c2ccc3c(c2)OCCO3)C1` (stereo not drawn) has a viability of 66%.
`Cc1ccc(/C(C#N)=C2\C=CC(=NO)C(Cl)=C2)cc1` gave a viability of 72%.
With `COC(=O)c1ccccc1-c1c2ccc(=O)cc-2oc2cc(O)ccc12` the viability was 103%.

Set 4
Target: HLA class I histocompatibility antigen, A alpha chain, allele A*25:01 (Homo sapiens, UniProt P04439)
Read-out: peptide-MHC binding
Molecule type: peptide
Tested at: concentration not given
`ETIGLVRAL` — result for binding: “active”.
For `SMHYKLDEV`, binding read “inactive”.
`MPMSMPIPM` — result for binding: “inactive”.
Under binding, `QLFPELECF` is recorded as “inactive”.
`YLQAKSQVL` — result for binding: “inactive”.
`AESICSYWL`: binding “inactive”.
`VILNYIPVL`: binding “inactive”.
For `ETESATLFT`, binding read “inactive”.

Further values, each from its own experiment
Cell line: HEK-293T/ACE2
Tested at: 10 µM
Time: 16 h
Relative to: vehicle
With `CO[C@H]1/C=C/O[C@@]2(C)Oc3c(C)c(O)c4c(O)c(c(/C=N/N5CCN(C)CC5)c(O)c4c3C2=O)NC(=O)/C(C)=C\C=C\[C@H](C)[C@H](O)[C@@H](C)[C@@H](O)[C@@H](C)[C@H](OC(C)=O)[C@@H]1C` the viability was 101%.
With `NC(=O)c1ncn([C@@H]2O[C@H](CO)[C@@H](O)[C@H]2O)n1` the viability was 102%.

A few entries again (set 1):
The inhibition of `Cc1c(C(=O)O)cc(-c2ccc(C3CCNCC3)cc2)c2ccc(-c3ccc(C(F)(F)F)cc3)cc12` is reported as -7.91%.
With `COc1ccc2cc(OCC3(C(=O)O)CN(C(=O)c4ccc(F)cc4)C3)ccc2c1` the inhibition was -6.83%.
The inhibition of `CN1CCN(C(=O)C(C)(C)c2ccc(C(=O)Nc3cn4cc(-c5cc(C(C)(C)C)cc(C(C)(C)C)c5)ccc4n3)cc2)CC1` is reported as 26.3%.
The inhibition of `CC(=O)Nc1c(C(C)=O)c(=O)n(C)c2nc(-c3ccc(Cl)cc3Cl)c(-c3ccc(Cl)cc3)cc12` is reported as -9.53%.
The inhibition of `CN(C)C(=O)Cn1cc(-c2nc(C3(c4ccc(-c5cnc(N)nc5)cc4)CC3)no2)cn1` is reported as 5.35%.
